# Measurements of several laboratories.
# Lines come from different studies, so protocols differ. ± marks the error that the study gave.
# PIM1: Serine/threonine-protein kinase pim-1 (PIM1, Homo sapiens, UniProt P11309)
# T1: RNA aptamer; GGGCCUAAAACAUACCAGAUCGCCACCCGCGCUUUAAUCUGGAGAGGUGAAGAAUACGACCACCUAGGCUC
Compound,target,test,test system,conditions,how to read,quantity,value
CC(=O)[O][Ag]=[c]1n(C)ccn1CC([O-])c1ccccc1.[Na+] (stereo not drawn),"ACTA1 (Oryctolagus cuniculus, UniProt P68135)",actin polymerization,,5 µM,,fluorescence minimum,~12000 RFU
COc1cc(C(=O)NC2CCC(N3CCN(CC4CCC5(CCCC5)C4)CC3)CC2)c(F)cc1Nc1ncc2c(n1)N(C1CCCC1(F)F)CC(F)(F)C(=O)N2C (stereo not drawn),"EPHA3 (Homo sapiens, UniProt P29320)","cell-free assay, TR-FRET",,10 µM,,inhibition,0.79%
CC(=O)NCCN(CCC(=O)NCCN(CCC(=O)NCCN(CCC(=O)NCCC(N)=O)C(=O)[C@@H](N)Cc1ccccc1)C(=O)[C@@H](N)CCCNC(=N)N)C(=O)[C@@H](N)CCCNC(=N)N,HIV-1 TAR RNA,,,,,non-electrostatic TΔS°,-5.57 ± 0.311 kcal/mol
COc1c2c(cc3oc(=O)cc(-c4ccc(O)cc4)c13)C(=O)c1cc(C)cc(O)c1C2=O,mushroom tyrosinase,enzyme activity,,"100 µg/mL, with: L-DOPA",,inhibition,66.9 ± 0.74%
CC(=O)NCCN(CCC(=O)NCCN(CCC(=O)NCCN(CCC(=O)NCCC(N)=O)C(=O)[C@@H](N)CCCCN)C(=O)[C@@H](N)Cc1ccccc1)C(=O)[C@@H](N)Cc1ccccc1,HIV-1 TAR RNA,,,concentration not given,,heat capacity change ΔCp,-2.91 ± 0.38 kJ/mol/K
OC[C@@H]1[C@@H](O)[C@H](O)[C@@H](O)CN1CCCCCOCC1CCOC1 (stereo partly drawn),"Beta-glucosidase (GBA2, Homo sapiens, UniProt Q9HCG7)","enzyme activity, inhibitor, 4-MU-β-D-glucopyranoside",HEK293T cell homogenate,,baseline: GCS IC50 over GBA2 IC50,selectivity ratio,989
CC(=O)NCCN(CC(=O)NCCN(CC(=O)NCCN(CC(=O)NCCC(N)=O)C(=O)[C@@H](N)Cc1ccccc1)C(=O)[C@@H](N)CCCNC(=N)N)C(=O)[C@@H](N)CCCNC(=N)N,HIV-1 TAR RNA,,,extrapolated to 1 M KCl,,non-electrostatic ΔG°,-6.573 ± 0.0478 kcal/mol
CC1(C)CCN(Cc2ccc(C(=O)NC[C@]3(O)CCCN(c4cc(NCc5ccccc5)ncn4)C3)c(O)c2)CC1,PIM1,radiometric,,"10 µM, with: 10 µM ATP",,remaining activity,100%
NC(=O)C1CCNC(=O)C(CCCNC(=O)c2cnccn2)NC(=O)C(Cc2ccco2)NC(=O)C(CC2CC2)NC(=O)C=CC(=O)N1 (stereo not drawn),PIM1,DNA-templated library selection,,one selection round,,enrichment factor,2.4
CN(C)[C@@H]1C(=O)C(C(N)=O)=C(O)[C@@]2(O)C(=O)C3=C(O)c4c(O)cccc4[C@@](C)(O)[C@H]3[C@H](O)[C@@H]12,"T1, RNA aptamer",fluorescence titration,,"pH 7.5, 25 °C, MgCl2 10 mM",,Kd,1.78 nM
CC[C@H](C)[C@H](NC(=O)[C@@H](NC(=O)[C@H](C)NC(=O)[C@@H](NC(=O)[C@H](Cc1c[nH]c2ccccc12)NC(=O)[C@H](CCC(=O)O)NC(=O)[C@H](CO)NC(=S)Nc1ccc2c(c1)C(=O)OC21c2ccc(O)cc2Oc2cc(O)ccc21)C(C)C)C(C)C)C(=O)N1CCC[C@H]1C(=O)N[C@@H](Cc1ccccc1)C(=O)N[C@@H](CC(C)C)C(=O)N[C@H](C(=O)N[C@@H](CC(N)=O)C(=O)N[C@@H](CC(C)C)C(=O)O)[C@@H](C)O,"Rgg transcriptional regulator (Streptococcus pneumoniae, UniProt A0A0E7KI02)","binding, fluorescence polarization",,,baseline: wild-type peptide,fold decrease in affinity,> 15 fold
CC(=O)NCCN(CC(=O)NCCN(CC(=O)NCCN(CC(=O)NCCC(N)=O)C(=O)[C@@H](N)CCCNC(=N)N)C(=O)[C@@H](N)Cc1ccccc1)C(=O)[C@@H](N)Cc1ccccc1,HIV-1 TAR RNA,,,25 °C,,binding free energy ΔG°,-8.63 ± 0.335 kcal/mol
CNc1ccccc1C(=O)O[C@H]1C[C@H](n2cnc3c(N)ncnc32)O[C@@H]1COP(=O)(O)OP(=O)(O)O,"Unconventional myosin-Va (Gallus gallus, UniProt Q02440, D297C/G292C/I296C/S293C/V295G)","stopped-flow FRET, linear fit intercept",,"15 °C, with: MgCl2 10 mM",,dissociation rate constant,3.84 ± 0.41 s⁻¹
CC(=O)N[C@@H](Cc1c[nH]c2ccccc12)C(=O)N[C@@H](Cc1c[nH]c2ccccc12)C(=O)N[C@@H](Cc1c[nH]c2ccccc12)C(=O)N[C@@H](Cc1c[nH]c2ccccc12)C(=O)N[C@@H](Cc1c[nH]c2ccccc12)C(=O)N[C@@H](Cc1c[nH]c2ccccc12)C(=O)NCCCC[C@@H]1NC(=O)[C@H](CCCNC(=N)N)NC(=O)[C@H](CCCNC(=N)N)NC(=O)[C@H](CCCNC(=N)N)NC(=O)[C@H](CCCNC(=N)N)NC(=O)[C@H](CCCNC(=N)N)NC(=O)[C@H](CCCNC(=N)N)NC1=O,"MAPK14 (Homo sapiens, UniProt Q16539)","kinase activity, Reaction Biology radiometric",,"concentration not given, with: ATP 200 µM",baseline: DMSO,remaining activity,51.4%
CC(C)(C)CCN1C[C@@H]2[C@@H](CNC(=O)c3cc(Cl)cc(Cl)c3)[C@@H]2C1.Cl,"Voltage-dependent L-type calcium channel subunit alpha-1F, exon 47 deletion isoform (Homo sapiens, UniProt O60840)","calcium current, whole-cell patch clamp",HEK-293T cells,50 nM,,activation slope factor k,7.91 ± 0.32 mV
O=C1C=CC(=O)N1c1ccccc1,"P2X purinoceptor 4 (P2rx4, Rattus norvegicus, UniProt P51577, I252C)","covalent modifier, patch clamp",,"0.5 mM, 2 min",,ATP-evoked current,no effect
O=C1NC(=O)C(=Cc2ccc(-c3cccc(C(F)(F)F)c3)o2)S1,"CD38 (Homo sapiens, UniProt P28907)","cyclase activity, fluorometric",,"50 µM, with: NGD+ substrate",baseline: untreated,remaining activity,12.9 ± 4.3%
O=c1c(-c2cnn(-c3ccccc3)c2)c(C(F)(F)F)oc2c(O)c(O)ccc12,"Cullin-3, with ROC1 (Homo sapiens, UniProt Q13618)",inhibitor,,up to 150 µM,,di-ubiquitin synthesis,no inhibition
CCCCCCCC(=O)Nc1ccc(C#N)nc1C,"CES1 (Homo sapiens, UniProt P23141)",substrate,,"50 µM, pH 8, 37 °C, enzyme purity 25%",,specific activity,63 pmol/min/µg
CC(=O)NCCN(CCC(=O)NCCN(CCC(=O)NCCN(CCC(=O)NCCC(N)=O)C(=O)[C@@H](N)CCCNC(=N)N)C(=O)[C@@H](N)CCCCN)C(=O)[C@@H](N)Cc1ccccc1,HIV-1 TAR RNA,,,25 °C,,binding free energy ΔG°,-8.22 ± 0.359 kcal/mol
CC[C@H](C)[C@H](NC(=O)[C@H](CCC(=O)O)NC(=O)[C@H](CO)NC(=O)[C@@H](NC(=O)[C@@H](N)CO)C(C)C)C(=O)N[C@@H](CCC(N)=O)C(=O)N[C@@H](CC(C)C)C(=O)N[C@@H](CCSC)C(=O)N[C@@H](Cc1c[nH]cn1)C(=O)N[C@@H](CC(N)=O)C(=O)N[C@@H](CC(C)C)C(=O)NCC(=O)N[C@@H](CCCCN)C(=O)N[C@@H](Cc1c[nH]cn1)C(=O)N[C@@H](CC(C)C)C(=O)N[C@@H](CC(N)=O)C(=O)N[C@@H](CO)C(=O)N[C@@H](CCSC)C(=O)N[C@@H](CCC(=O)O)C(=O)N[C@@H](CCCNC(=N)N)C(=O)N[C@H](C(=O)N[C@@H](CCC(=O)O)C(=O)N[C@@H](Cc1c[nH]c2ccccc12)C(=O)N[C@@H](CC(C)C)C(=O)N[C@@H](CCCNC(=N)N)C(=O)N[C@@H](CCCCN)C(=O)N[C@@H](CCCCN)C(=O)N[C@@H](CC(C)C)C(=O)N[C@@H](CCC(N)=O)C(=O)N[C@@H](CC(=O)O)C(=O)N[C@H](C(=O)N[C@@H](Cc1c[nH]cn1)C(=O)N[C@@H](CC(N)=O)C(=O)N[C@@H](Cc1ccccc1)C(=O)N[C@@H](CCCCNC(=O)c1ccc2c(c1)C1(OC2=O)c2ccc(N(C)C)cc2Oc2cc(N(C)C)ccc21)C(N)=O)C(C)C)C(C)C,"PTH1R (Homo sapiens, UniProt Q03431)","binding, NanoBRET",,"pH 5.5, acetate buffer",,koff,0.039 ± 0.006 s⁻¹

# For quick reference, copied from above:
Compound,target,test,test system,conditions,how to read,quantity,value
CC(=O)NCCN(CCC(=O)NCCN(CCC(=O)NCCN(CCC(=O)NCCC(N)=O)C(=O)[C@@H](N)Cc1ccccc1)C(=O)[C@@H](N)CCCNC(=N)N)C(=O)[C@@H](N)CCCNC(=N)N,HIV-1 TAR RNA,,,,,non-electrostatic TΔS°,-5.57 ± 0.311 kcal/mol
COc1cc(C(=O)NC2CCC(N3CCN(CC4CCC5(CCCC5)C4)CC3)CC2)c(F)cc1Nc1ncc2c(n1)N(C1CCCC1(F)F)CC(F)(F)C(=O)N2C (stereo not drawn),"EPHA3 (Homo sapiens, UniProt P29320)","cell-free assay, TR-FRET",,10 µM,,inhibition,0.79%
